Results collected from several papers.

| SMILES | test | system | setting | measurement | result |
| --- | --- | --- | --- | --- | --- |
| Cc1cc(NC2CCN(C(=O)OC3CCN(C(=O)/C=C/CN(C)C)C3)CC2)n2ncc(C(C)C)c2n1 (centres unmarked) | Phase I dose escalation CTCAE v4.0, measured: abdominal distension | patients with advanced solid tumours | dose not given, TIW dosing grade 3 or higher | patients with adverse event | 0% |
| COc1cc(Nc2ncc3c(n2)-c2ccc(Cl)cc2C(c2c(F)cccc2OC)=NC3)ccc1C(=O)O | measured: increased AST, all grades | cancer patients, phase 1/2 | oral, dose not given, together with: pembrolizumab | patients with adverse event | 21% |
| COc1ccc([C@@H](O)c2cc(-c3ncnc4cc(N5CCOCC5)ccc34)c(F)cc2Cl)nn1 | measured: Anemia | locally advanced rectal cancer patients | dose not given, all dose groups, together with: capecitabine plus radiotherapy | patients with TEAE | 32% |
| CCOc1c([C@H](C)n2nc(C)c3c(N)ncnc32)cc(Cl)c(F)c1[C@@H]1CNC(=O)C1 | measured: QTcF ≤450 ms | previously treated B-cell malignancy | oral, 5 mg once daily, overall population | patients | 100% |
| FC(F)(F)c1ccc(CNc2ccc(Cc3c[nH]c4ncc(Cl)cc34)cn2)cn1 | measured: blood alkaline phosphatase increased | advanced solid tumour patients | oral, 1000 mg/day, all grades, all cohorts | patients with treatment-related adverse event | 6% |
| NC(=O)N1c2ccccc2C=Cc2ccccc21 |  | male patients | oral, dose not given, on-treatment adverse events | patients with abnormal dreams | 0% |
| C=CC(=O)Nc1cc(Nc2nccc(-c3cn(C)c4ccccc34)n2)c(OC)cc1N(C)CCN(C)C | measured: treatment-related grade ≥3 Anemia | EGFR-mutant MET-altered NSCLC | oral, dose not given | patients with adverse events | 0% |
| C[C@@H](Nc1cc(F)cc(F)c1)c1cc(C(=O)N(C)C)cc2c(=O)cc(N3CCOCC3)oc12 | measured: Hypersensitivity | advanced solid tumour patients | oral, dose not given, dose finding | patients discontinuing for AE | 1.6% |
| CNC(=O)c1ccc(-c2cnc3ncc(Cc4ccc5ncccc5c4)n3n2)cc1F | measured: Diarrhea | hepatocellular carcinoma patients | oral, 600 mg twice daily, expansion cohort, grade 3-4 | patients with adverse event | 0% |
| COc1cc2nccc(Oc3ccc(NC(=O)c4cc5c(n(-c6ccccc6)c4=O)CCCC5=O)nc3)c2cc1OC |  | patients with relapsed/refractory AML | oral, 6 mg once daily | patients with TEAEs | 100% |
| O=C(Nc1nc2cccc(-c3ccc(CN4CCS(=O)(=O)CC4)cc3)n2n1)C1CC1 |  | rheumatoid arthritis patients | oral, 100 mg twice daily, 4 weeks, regardless of relatedness | patients with non-cardiac chest pain | 0% |
| CNC(=O)c1cc(Oc2ccc(NC(=O)Nc3cc(C(C)(C)C)nn3-c3ccc4ncccc4c3)c(F)c2)ccn1 |  | patients | oral, dose not given, cycles 1 and 2, Medium AUC subgroup | patients with visual abnormalities | 29% |
| Cc1cc(-c2nnc(N)nc2-c2ccc(F)cc2)cc(Cl)n1 | measured: Hyperthyroidism | IO-naive mCRPC patients, male | oral, dose not given, treatment-related, grade ≥3 | patients with immune-mediated AE | 0% |
| CC(C)C[C@H](NC(=O)CNC(=O)c1cc(Cl)ccc1Cl)B(O)O | measured: Diarrhoea, all grades | newly diagnosed multiple myeloma patients | oral, dose not given, maintenance phase, new onset, cycle 17 or later | patients with adverse event | 33% |

Some of these lines once more:
| SMILES | test | system | setting | measurement | result |
| --- | --- | --- | --- | --- | --- |
| CCOc1c([C@H](C)n2nc(C)c3c(N)ncnc32)cc(Cl)c(F)c1[C@@H]1CNC(=O)C1 | measured: QTcF ≤450 ms | previously treated B-cell malignancy | oral, 5 mg once daily, overall population | patients | 100% |
